Measured values pooled from the literature.
Numbered parts are unrelated; each lists some results of a single study. Several values in a cell are separate wells, animals, samples, runs or records.
Chain of UniProt Q9UK32 (whole entry, looked up): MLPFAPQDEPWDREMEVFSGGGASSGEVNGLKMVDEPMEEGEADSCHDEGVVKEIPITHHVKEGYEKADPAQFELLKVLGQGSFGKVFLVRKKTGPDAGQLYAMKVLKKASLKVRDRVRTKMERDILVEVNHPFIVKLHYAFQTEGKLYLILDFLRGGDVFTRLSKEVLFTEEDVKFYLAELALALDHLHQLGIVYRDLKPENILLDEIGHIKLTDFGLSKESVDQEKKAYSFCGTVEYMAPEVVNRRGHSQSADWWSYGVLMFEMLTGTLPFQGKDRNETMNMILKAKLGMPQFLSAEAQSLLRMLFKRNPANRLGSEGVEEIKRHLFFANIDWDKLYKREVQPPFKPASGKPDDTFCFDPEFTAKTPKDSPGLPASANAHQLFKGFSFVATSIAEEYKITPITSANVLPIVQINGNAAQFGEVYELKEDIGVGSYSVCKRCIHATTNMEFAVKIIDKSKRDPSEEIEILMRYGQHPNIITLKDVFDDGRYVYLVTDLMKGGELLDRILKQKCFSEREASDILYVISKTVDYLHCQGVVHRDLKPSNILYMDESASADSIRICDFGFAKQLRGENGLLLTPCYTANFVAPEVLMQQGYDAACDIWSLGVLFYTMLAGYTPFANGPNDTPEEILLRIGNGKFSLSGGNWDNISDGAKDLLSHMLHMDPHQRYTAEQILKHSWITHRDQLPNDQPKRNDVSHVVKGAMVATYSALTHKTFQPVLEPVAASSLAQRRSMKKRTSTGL
Chain of UniProt P50613 (whole entry, looked up): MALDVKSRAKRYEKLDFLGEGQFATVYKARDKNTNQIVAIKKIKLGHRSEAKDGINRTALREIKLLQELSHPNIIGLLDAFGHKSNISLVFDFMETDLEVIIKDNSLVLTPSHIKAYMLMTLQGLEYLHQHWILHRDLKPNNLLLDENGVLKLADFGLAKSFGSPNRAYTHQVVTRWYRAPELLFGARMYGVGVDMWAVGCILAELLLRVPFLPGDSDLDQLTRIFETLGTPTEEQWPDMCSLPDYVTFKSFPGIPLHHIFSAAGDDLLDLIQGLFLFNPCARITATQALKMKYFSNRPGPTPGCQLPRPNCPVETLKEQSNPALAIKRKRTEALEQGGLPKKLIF

Study 1
Target: DNA polymerase theta, ATPase domain (POLQ, Homo sapiens, UniProt O75417)
Chain of UniProt O75417 (whole entry, unmodified, looked up): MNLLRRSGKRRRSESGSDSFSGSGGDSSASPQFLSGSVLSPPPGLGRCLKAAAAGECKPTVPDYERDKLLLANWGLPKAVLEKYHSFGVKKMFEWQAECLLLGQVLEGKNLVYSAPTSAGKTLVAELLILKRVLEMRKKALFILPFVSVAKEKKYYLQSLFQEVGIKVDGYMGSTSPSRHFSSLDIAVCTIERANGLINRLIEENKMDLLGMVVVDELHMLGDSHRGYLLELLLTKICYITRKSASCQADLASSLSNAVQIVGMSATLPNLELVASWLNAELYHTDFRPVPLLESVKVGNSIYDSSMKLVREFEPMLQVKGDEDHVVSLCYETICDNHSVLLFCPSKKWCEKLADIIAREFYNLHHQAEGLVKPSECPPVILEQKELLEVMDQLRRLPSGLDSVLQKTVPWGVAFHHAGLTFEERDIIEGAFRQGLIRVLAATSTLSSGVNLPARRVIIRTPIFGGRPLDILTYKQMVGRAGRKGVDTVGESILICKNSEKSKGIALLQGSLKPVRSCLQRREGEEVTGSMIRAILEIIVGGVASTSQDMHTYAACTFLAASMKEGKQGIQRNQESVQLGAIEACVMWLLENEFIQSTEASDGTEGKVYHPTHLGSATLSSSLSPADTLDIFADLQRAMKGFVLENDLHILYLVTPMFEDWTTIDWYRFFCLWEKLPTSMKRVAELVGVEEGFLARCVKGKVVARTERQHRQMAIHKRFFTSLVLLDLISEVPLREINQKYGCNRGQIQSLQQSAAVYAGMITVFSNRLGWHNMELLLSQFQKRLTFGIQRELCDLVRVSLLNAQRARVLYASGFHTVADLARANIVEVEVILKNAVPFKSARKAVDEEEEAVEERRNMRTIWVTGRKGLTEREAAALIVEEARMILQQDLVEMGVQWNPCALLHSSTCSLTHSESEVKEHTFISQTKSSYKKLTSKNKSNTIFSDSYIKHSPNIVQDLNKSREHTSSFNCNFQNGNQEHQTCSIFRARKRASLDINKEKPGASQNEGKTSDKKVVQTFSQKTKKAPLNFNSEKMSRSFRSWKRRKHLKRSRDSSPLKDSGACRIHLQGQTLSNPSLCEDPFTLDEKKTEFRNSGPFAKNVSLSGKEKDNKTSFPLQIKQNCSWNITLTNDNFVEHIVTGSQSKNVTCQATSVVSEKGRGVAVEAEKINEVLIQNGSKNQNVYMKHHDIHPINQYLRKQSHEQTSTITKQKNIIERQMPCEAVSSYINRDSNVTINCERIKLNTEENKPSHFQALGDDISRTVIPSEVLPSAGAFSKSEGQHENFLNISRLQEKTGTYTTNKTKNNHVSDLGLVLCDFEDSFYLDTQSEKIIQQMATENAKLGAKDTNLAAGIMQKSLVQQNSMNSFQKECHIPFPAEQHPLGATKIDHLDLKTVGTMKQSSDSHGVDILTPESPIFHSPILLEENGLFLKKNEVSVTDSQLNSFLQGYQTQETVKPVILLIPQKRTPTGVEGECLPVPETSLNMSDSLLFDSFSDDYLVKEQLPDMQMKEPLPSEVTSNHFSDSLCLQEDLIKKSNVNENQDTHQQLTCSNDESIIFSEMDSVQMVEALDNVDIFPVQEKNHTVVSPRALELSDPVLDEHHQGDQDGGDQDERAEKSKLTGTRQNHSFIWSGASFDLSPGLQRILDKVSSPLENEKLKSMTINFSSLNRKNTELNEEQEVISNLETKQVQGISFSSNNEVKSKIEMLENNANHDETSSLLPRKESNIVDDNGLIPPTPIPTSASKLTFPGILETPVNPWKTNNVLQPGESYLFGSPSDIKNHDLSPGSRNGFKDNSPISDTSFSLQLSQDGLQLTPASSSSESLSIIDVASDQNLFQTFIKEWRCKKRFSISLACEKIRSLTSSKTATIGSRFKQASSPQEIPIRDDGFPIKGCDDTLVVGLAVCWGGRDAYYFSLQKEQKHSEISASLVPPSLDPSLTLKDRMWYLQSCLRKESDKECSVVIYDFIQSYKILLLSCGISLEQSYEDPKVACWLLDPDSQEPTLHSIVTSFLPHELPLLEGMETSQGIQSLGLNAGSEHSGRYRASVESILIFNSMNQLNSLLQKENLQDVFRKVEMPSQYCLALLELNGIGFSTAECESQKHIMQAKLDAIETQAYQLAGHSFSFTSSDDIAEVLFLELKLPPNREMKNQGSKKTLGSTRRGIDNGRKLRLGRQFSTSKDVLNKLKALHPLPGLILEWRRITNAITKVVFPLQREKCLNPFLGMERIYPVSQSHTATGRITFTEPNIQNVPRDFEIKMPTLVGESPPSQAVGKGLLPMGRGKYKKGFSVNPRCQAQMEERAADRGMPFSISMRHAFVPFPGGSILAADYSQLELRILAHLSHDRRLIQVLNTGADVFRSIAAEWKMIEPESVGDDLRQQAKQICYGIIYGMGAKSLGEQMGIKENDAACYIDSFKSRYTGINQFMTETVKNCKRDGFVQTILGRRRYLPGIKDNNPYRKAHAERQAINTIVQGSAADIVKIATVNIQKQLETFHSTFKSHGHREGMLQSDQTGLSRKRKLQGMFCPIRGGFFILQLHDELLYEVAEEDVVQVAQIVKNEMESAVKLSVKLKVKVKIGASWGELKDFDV
Read-out: enzyme activity
Action: inhibitor
Tested at: 77 µM
Reference: untreated
Endpoint: remaining activity
NC[C@H](O)c1ccc(O)c(O)c1: 92.7%
COc1ccc2cc(CCC(C)=O)ccc2c1: 92.2% and 102%
CC1(C)O[C@@H]2C[C@H]3[C@@H]4C[C@H](F)C5=CC(=O)C=C[C@]5(C)[C@H]4[C@@H](O)C[C@]3(C)[C@]2(C(=O)CO)O1: 93.9%
COc1ccc(-c2ccc(=N)n(CCCC(=O)O)n2)cc1: 101%
Nc1[nH]cnc2ncnc1-2: 93%
CCN[C@H]1CN(CCCOC)S(=O)(=O)c2sc(S(N)(=O)=O)cc21: 101%
CN(C)c1cc(NC(=O)CNC(C)(C)C)c(O)c2c1C[C@H]1C[C@H]3[C@H](N(C)C)C(O)=C(C(N)=O)C(=O)[C@@]3(O)C(O)=C1C2=O: 96.6%
Oc1ccc(O)cc1: 115%
CN1CCC(OC(c2ccccc2)c2ccccc2)CC1: 101%
CN(CCCOc1ccc(Cc2ccccc2)cc1)CCC(=O)O: 102%
O=C(N/N=C/c1ccc([N+](=O)[O-])o1)c1ccc(O)cc1: 92.2% and 100%

Study 2
SMILES: CNCc1ccccc1-c1csc([C@H](C)Nc2nc(C)nc3cc(OC)c(OC)cc23)c1
Read-out: cell-free assay
Method: competition with immobilised ligand
Tested at: 1 µM
Endpoint: remaining binding
MYLK3 (Homo sapiens, UniProt Q32MK0): 100%
Ribosomal protein S6 kinase alpha-6, N-terminal kinase domain (RPS6KA6, Homo sapiens, UniProt Q9UK32): 100%
CDKL2 (Homo sapiens, UniProt Q92772): 100%
CDK7 (Homo sapiens, UniProt P50613): 61%
AKT3 (Homo sapiens, UniProt Q9Y243): 95%
PKN2 (Homo sapiens, UniProt Q16513): 90%
PLK4 (Homo sapiens, UniProt O00444): 76%
MAP3K9 (Homo sapiens, UniProt P80192): 100%
PIK3CA (Homo sapiens, UniProt P42336, Q546K): 84%
EGFR (Homo sapiens, UniProt P00533, del746-750): 89%
STK26 (Homo sapiens, UniProt Q9P289): 97%
EPHA8 (Homo sapiens, UniProt P29322): 100%
CHUK (Homo sapiens, UniProt O15111): 90%
RPS6KB1 (Homo sapiens, UniProt P23443): 83%
CAMK2B (Homo sapiens, UniProt Q13554): 100%
CHEK2 (Homo sapiens, UniProt O96017): 87%
MAP2K5 (Homo sapiens, UniProt Q13163): 87%

Study 3
Target: Calcium/calmodulin-dependent protein kinase type II subunit alpha (CAMK2A, Homo sapiens, UniProt Q9UQM7)
Chain of UniProt Q9UQM7 (whole entry, looked up): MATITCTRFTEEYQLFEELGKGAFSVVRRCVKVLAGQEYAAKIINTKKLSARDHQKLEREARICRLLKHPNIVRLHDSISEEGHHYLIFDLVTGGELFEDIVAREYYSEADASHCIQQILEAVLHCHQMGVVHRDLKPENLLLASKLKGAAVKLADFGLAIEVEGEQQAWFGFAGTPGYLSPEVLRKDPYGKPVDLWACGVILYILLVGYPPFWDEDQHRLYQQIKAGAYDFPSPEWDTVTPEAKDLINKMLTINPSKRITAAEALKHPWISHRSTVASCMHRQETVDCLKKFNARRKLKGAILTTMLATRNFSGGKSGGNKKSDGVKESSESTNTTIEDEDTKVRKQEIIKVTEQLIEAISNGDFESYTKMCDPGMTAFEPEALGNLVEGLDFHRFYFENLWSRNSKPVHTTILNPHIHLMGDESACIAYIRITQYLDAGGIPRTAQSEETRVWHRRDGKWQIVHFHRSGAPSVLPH
Read-out: enzyme activity
Action: inhibitor
Tested at: 10 µM
Endpoint: inhibition
COc1cc([C@@H]2c3cc4c(cc3[C@@H](O[C@@H]3O[C@@H]5CO[C@@H](C)O[C@H]5[C@H](O)[C@H]3O)[C@H]3COC(=O)[C@H]23)OCO4)cc(OC)c1OP(=O)(O)O: -8%
COc1ccccc1OCC(O)CO (stereo not shown): 0%
CC(=O)[C@H]1CC[C@H]2[C@@H]3CC=C4C[C@@H](OS(=O)(=O)O)CC[C@]4(C)[C@H]3CC[C@]12C: 14%
O[C@@](Cn1cnnn1)(c1ccc(F)cc1F)C(F)(F)c1ccc(-c2ccc(OCC(F)(F)F)cc2)cn1: -2%
CCC(C(=O)O)c1ccccc1 (stereo not shown): -40%
Cc1ccc(-c2ccccc2)cc1: -16%
C[C@](N)(Cc1ccc(O)c(O)c1)C(=O)O: 0%
COc1ccc(-c2cc(=O)c3c(O)c(OC)c(O[C@@H]4O[C@H](CO[C@@H]5O[C@@H](C)[C@H](O)[C@@H](O)[C@H]5O)[C@@H](O)[C@H](O)[C@H]4O)cc3o2)cc1: 3%
Nc1ccn([C@H]2CC[C@@H](CO)O2)c(=O)n1: -3%
CCc1nn(CCCN2CCN(c3cccc(Cl)c3)CC2)c(=O)n1CCOc1ccccc1: -7%
O=C(Cn1ccnc1[N+](=O)[O-])NCc1ccccc1: -15%
CCC(C)CCCCC(=O)NCC[C@@H]1NC(=O)[C@H](CC(C)C)NC(=O)[C@H](CCN)NC(=O)[C@H](CC(C)C)NC(=O)[C@H](CCN)NC(=O)[C@H](CCN)NC(=O)[C@H](CCN)NC(=O)[C@H]([C@@H](C)O)NC1=O (stereo partly shown): -9%
O=CC(=O)O: -41%
CN1[C@@H](CC(=O)c2ccccc2)CCC[C@H]1C[C@H](O)c1ccccc1: -9%
CCCCCCCCCCCCCCCC(=O)NCCO: -10%
COc1cc(O)c(C(C)=O)c(OC)c1: -22%
COCCCOc1ccnc(C[S+]([O-])c2nc3ccccc3[nH]2)c1C (stereo not shown): -4%

Study 4
Target: Mitogen-activated protein kinase kinase kinase 10 (MAP3K10, Homo sapiens, UniProt Q02779)
Chain of UniProt Q02779 (whole entry, looked up): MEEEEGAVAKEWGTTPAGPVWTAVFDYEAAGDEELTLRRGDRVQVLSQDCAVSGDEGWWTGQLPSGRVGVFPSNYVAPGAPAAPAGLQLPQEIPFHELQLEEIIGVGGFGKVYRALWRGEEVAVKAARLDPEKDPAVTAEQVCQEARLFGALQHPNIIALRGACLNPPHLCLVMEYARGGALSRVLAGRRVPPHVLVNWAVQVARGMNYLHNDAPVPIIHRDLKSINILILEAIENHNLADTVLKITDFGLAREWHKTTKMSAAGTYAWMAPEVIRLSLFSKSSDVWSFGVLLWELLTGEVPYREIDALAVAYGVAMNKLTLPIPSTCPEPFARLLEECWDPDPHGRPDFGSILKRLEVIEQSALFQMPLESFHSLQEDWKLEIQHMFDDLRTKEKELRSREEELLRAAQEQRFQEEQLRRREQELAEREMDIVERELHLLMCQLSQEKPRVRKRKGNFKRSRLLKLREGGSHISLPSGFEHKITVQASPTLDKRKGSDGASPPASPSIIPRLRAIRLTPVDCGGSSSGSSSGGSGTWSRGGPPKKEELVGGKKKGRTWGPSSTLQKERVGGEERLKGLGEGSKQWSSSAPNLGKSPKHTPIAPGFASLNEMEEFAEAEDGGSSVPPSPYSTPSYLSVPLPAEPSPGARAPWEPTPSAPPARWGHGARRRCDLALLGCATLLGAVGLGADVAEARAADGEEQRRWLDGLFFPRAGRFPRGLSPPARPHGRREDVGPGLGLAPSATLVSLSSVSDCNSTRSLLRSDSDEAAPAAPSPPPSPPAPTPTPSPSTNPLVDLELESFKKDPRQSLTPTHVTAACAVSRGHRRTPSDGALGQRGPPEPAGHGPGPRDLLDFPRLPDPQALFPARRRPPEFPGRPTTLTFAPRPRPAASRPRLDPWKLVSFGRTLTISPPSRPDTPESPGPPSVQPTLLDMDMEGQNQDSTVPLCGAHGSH
Read-out: enzyme activity
Action: inhibitor
Tested at: 0.5 µM
Reference: control
Endpoint: remaining activity
CC(C)c1nn(-c2c(Cl)cccc2Cl)c2nc(Cc3ccc(OCCO)cc3)[nH]c(=O)c12: 90.3%
COc1ccc(-c2cnc3c(-c4ccsc4)cnn3c2)cc1: 94.2%
CCC(=O)Nc1ccc2ncnc(Nc3cccc(Br)c3)c2c1: 91.2%
COc1cc2ncnc(N3CCN(C(=O)Nc4ccc(Oc5ccccc5)cc4)CC3)c2cc1OC: 92%
Cc1nc(Nc2ncc(C(=O)Nc3c(C)cccc3Cl)s2)cc(N2CCN(CCO)CC2)n1: 93.7%
Cc1ccc(NC(=O)c2ccc(CN3CCN(C)CC3)cc2)cc1Nc1nccc(-c2cccnc2)n1: 105%
COc1cc2ncnc(Nc3ccc(OCc4ccccc4)cc3)c2cc1OC: 94.9%
COc1ccc(Cl)cc1NC(=O)Nc1cc(C)nc2ccccc12: 94.9%
CC(=O)O/N=C1/C(c2c(O)[nH]c3cc(Br)ccc23)=Nc2ccccc21: 92.3%
Cn1cnc2cc3c(Nc4cccc(Br)c4)ncnc3cc21: 94%
CCOc1cc2ncnc(Nc3cccc(Br)c3)c2cc1OCC: 93.2%
Cn1cc(/C=C2\C(=O)Nc3ccc(S(N)(=O)=O)cc32)c2ccccc21: 95.9%
COc1cc2ncc(-c3ccccc3)nc2cc1OC: 105%
CC(C)[C@H](CO)Nc1nc(Nc2cccc(Cl)c2)c2ncn(C(C)C)c2n1: 98%
O=C(Nc1ccc(Cl)cc1)c1ccccc1NCc1ccncc1: 104%
O=c1cc(N2CCOCC2)oc2c1ccc1ccccc12: 102%
CS(=O)(=O)CCNCc1ccc(-c2ccc3ncnc(Nc4ccc(OCc5cccc(F)c5)c(Cl)c4)c3c2)o1: 108%
C[S+]([O-])c1ccc(-c2nc(-c3ccncc3)c(-c3ccc(F)cc3)[nH]2)cc1 (stereo not shown): 104%
CCN1/C(=C/C(C)=O)Sc2ccc(OC)cc21: 95%

For quick reference, copied from above (study 4):
Cn1cc(/C=C2\C(=O)Nc3ccc(S(N)(=O)=O)cc32)c2ccccc21: 95.9%
Cc1ccc(NC(=O)c2ccc(CN3CCN(C)CC3)cc2)cc1Nc1nccc(-c2cccnc2)n1: 105%
O=c1cc(N2CCOCC2)oc2c1ccc1ccccc12: 102%
COc1ccc(-c2cnc3c(-c4ccsc4)cnn3c2)cc1: 94.2%
COc1cc2ncc(-c3ccccc3)nc2cc1OC: 105%
C[S+]([O-])c1ccc(-c2nc(-c3ccncc3)c(-c3ccc(F)cc3)[nH]2)cc1 (stereo not shown): 104%
COc1ccc(Cl)cc1NC(=O)Nc1cc(C)nc2ccccc12: 94.9%
CS(=O)(=O)CCNCc1ccc(-c2ccc3ncnc(Nc4ccc(OCc5cccc(F)c5)c(Cl)c4)c3c2)o1: 108%
